Results from different studies.
Every numbered part comes from another study and shows a few of its results, in no order. Values joined by “and” are separate records of one study, mostly repeats; a detail may differ. Substitutions count along the parent as printed.

Series 1 — target: UBE2W UBC core domain (UniProt Q96B02); method: yeast two-hybrid; sample: yeast; notes: mostly zero background; reference: not given; reading: higher = stronger interaction
B1: TRIM34 RING domain (UniProt Q9BYJ4); chain ILLNVQEEVTCPICLELLTEPLSLDCGHSLCRACITVSNKEAVTSMGGKSSCPVCGISYSFEHLQA
B2: RNF17 RING domain (UniProt Q9BXT8); chain SQPWGAAEIQCTRCGRRVSRSSGHHCELQCGHAFCELCLLMTEECTTIICPDCEVATAVNTRQR
B3: RNF10 RING domain (UniProt Q8N5U6); chain VRICSHEVPSCPICLYPPTAAKITRCGHIFCWACILHYLSLSEKTWSKCPICYSSVHKKDLKS
B4: UBE4B RING domain (UniProt O95155); chain KNARAEIDYSDAPDEFRDPLMDTLMTDPVRLPSGTIMDRSIILRHLLNSPTDPFNRQTLTESMLEPVPELKEQIQAWMREKQNSDH
B5: RNF32 RING domain (UniProt Q9H0A6); chain VQALRRETHECSICLAPLSAAGGQRVGAGRRSREMALLSCSHVFHHACLLALEEFSVGDRPPFHACPLCRSCYQKKILEC
Target sequence (chain): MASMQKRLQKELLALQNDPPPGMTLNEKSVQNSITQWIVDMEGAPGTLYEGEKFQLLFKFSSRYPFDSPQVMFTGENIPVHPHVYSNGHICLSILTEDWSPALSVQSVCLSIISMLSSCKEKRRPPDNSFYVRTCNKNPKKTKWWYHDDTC
Molecule | lacZ reporter activity
PLRRLQEEKLCKICMDRHIAVVFIPCGHLVTCKQCAEAVDRCPMCSAVIDFKQRVF (BIRC8 RING domain (UniProt Q96P09)) | 0
AAQLLEEKLTCAICLGLYQDPVTLPCGHNFCGACIRDWWDRCGKACPECREPFPDGAELR (TRIM65 RING domain (UniProt Q6PJ69)) | 0
B1 (TRIM34 RING domain) | 0
B2 (RNF17 RING domain) | 0
B3 (RNF10 RING domain) | 0
B4 (UBE4B RING domain) | 0
B5 (RNF32 RING domain) | 0
SNNDLASLFECPVCFDYVLPPILQCQSGHLVCSNCRPKLTCCPTCRGPLGSIRNLA (SIAH1 RING domain (UniProt Q8IUQ4)) | 0

Series 2 — target: CCNA1, cyclin fold, Cln2 fusion (human); method: yeast growth competition, sequencing; sample: yeast; notes: strong parent motif; reference: not given; reading: higher = stronger binding; starting sequence: viral docking peptide; YKVKRRLVFGADD
Variant | normalised enrichment score
YKVKFRLVFGADD [R5F] | -0.0435
YKVKSRLVFGADD [R5S] | 0.127
YKVKARAVFGADD [R5A L7A] | 0.292
YKVKRRLYFGADD [V8Y] | 1.3
YKVKRRGVFGADD [L7G] | 0.154
YKVKRRLVFFADD [G10F] | 0.611
YKVKRRLSFGADD [V8S] | 1.77
YKVKRRLEFGADD [V8E] | 1.89

Single results of other studies
SMILES | cell line | assay | setting | measurement | value
CC(C)S(=O)(=O)c1ccc2nccc(Nc3ccc4sc(C5CCCC5)nc4c3)c2c1.Cl | L929 RIPK3-/- reexpressing RIPK3 K51A | CCK-8 | 3.125 µM, with: zVAD | survival | 95.1% and 96.5% and 101%
C=C1CC2(C)C(=CC1=O)CCC1C2CCC2(C)C(OC(=O)OCC)CCC12 (stereo not drawn) | HEK-293T-ACE2-TMPRSS2 | cell count | concentration not given | viability | 72%

Repeated from above (single results of other studies):
SMILES | cell line | assay | setting | measurement | value
C=C1CC2(C)C(=CC1=O)CCC1C2CCC2(C)C(OC(=O)OCC)CCC12 (stereo not drawn) | HEK-293T-ACE2-TMPRSS2 | cell count | concentration not given | viability | 72%
CC(C)S(=O)(=O)c1ccc2nccc(Nc3ccc4sc(C5CCCC5)nc4c3)c2c1.Cl | L929 RIPK3-/- reexpressing RIPK3 K51A | CCK-8 | 3.125 µM, with: zVAD | survival | 95.1% and 96.5% and 101%
